# Assay results pooled from the literature.
# Each numbered part is a random draw from the data of one study; scales do not carry over between parts. Positions count from the first letter of the parent shown.
# Sequence of UniProt P42681 (whole entry, looked up): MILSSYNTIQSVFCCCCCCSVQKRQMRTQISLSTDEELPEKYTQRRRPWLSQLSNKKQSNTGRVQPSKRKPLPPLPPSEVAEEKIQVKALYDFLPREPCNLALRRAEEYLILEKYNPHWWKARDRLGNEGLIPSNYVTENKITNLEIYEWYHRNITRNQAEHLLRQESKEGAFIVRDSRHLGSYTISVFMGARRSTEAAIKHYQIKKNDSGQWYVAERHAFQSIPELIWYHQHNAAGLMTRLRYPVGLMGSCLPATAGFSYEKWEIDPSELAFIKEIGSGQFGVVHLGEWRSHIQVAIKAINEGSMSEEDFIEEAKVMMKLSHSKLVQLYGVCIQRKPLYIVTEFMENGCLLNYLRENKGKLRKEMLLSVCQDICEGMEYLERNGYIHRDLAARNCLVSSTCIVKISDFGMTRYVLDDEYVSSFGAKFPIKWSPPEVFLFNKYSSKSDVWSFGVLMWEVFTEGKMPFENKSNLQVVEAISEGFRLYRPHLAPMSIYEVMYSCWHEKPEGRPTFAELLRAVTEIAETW
# Sequence of UniProt P50750 (whole entry, looked up): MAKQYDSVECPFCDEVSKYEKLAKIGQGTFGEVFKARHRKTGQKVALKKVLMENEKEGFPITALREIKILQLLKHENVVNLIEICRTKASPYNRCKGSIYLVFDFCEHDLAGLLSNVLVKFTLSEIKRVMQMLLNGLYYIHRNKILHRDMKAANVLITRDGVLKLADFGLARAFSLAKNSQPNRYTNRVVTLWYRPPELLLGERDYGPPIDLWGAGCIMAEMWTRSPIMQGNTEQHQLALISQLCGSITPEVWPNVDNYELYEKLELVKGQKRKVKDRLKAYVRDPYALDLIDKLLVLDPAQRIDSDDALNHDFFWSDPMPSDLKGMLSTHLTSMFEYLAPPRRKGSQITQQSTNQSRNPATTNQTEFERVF

# Study 1 — target: CCNF, cyclin fold, Cln2 fusion (human); method: yeast growth competition, sequencing; sample: yeast; notes: strong parent motif; relative to: not given; reading: higher = stronger binding; starting sequence: viral docking peptide; TSVRRALFTGGSD
Change,normalised enrichment score
R5S,0.481
G11P,8.52
D13A,9
R4G,2.29
G11V,8.33
S12R,8.76
S2L,8.1
G11T,8.5
R4H,4.61
V3M,3.1
V3C,7.85
G11C,8.46
S2Q,7.69

# Study 2 — effect on: enzyme activity; action: inhibitor; tested at: 0.5 µM; relative to: control
# SMILES: O=C1NC(=O)c2c1c1c3ccccc3n3c1c1c2c2ccccc2n1[C@H]1CC[C@@H]3O1
target,remaining activity [%]
"TXK (Homo sapiens, UniProt P42681)",22.7
"MET (Homo sapiens, UniProt P08581)",76.9
"Cyclin-dependent kinase 9, with cyclin K (CDK9, Homo sapiens, UniProt P50750)",15.8

# Study 3 — target: BATF3, bZIP domain (human); method: DHFR protein complementation; sample: yeast; relative to: wild-type JUN-FOS pair; reading: higher = stronger binding
# Notes: single substitutions, most at no-binding floor
# Starting sequence: JUN, bZIP domain (human); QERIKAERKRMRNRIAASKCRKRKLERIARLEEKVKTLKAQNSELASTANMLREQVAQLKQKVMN; partner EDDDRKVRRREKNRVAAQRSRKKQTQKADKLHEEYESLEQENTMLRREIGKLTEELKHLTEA
Change,binding fitness [natural log]
A57W,0.147
I28P,0.305
K34H,0.241
I28V,0.211
K36L,0.225
S43F,0.161
L31S,0.0974
E32P,0.151

# Study 4 — target: inorganic phosphate, free oxyanion; method: microfluidic competitive inhibition; sample: in vitro, cell-free expressed; tested at: not given; reading: lower = stronger binding
# Notes: derived from inhibition constants, unchanged parent 615000 nM
# Starting sequence: PafA, mature enzyme, eGFP fusion (Elizabethkingia meningoseptica, UniProt Q9KJX5); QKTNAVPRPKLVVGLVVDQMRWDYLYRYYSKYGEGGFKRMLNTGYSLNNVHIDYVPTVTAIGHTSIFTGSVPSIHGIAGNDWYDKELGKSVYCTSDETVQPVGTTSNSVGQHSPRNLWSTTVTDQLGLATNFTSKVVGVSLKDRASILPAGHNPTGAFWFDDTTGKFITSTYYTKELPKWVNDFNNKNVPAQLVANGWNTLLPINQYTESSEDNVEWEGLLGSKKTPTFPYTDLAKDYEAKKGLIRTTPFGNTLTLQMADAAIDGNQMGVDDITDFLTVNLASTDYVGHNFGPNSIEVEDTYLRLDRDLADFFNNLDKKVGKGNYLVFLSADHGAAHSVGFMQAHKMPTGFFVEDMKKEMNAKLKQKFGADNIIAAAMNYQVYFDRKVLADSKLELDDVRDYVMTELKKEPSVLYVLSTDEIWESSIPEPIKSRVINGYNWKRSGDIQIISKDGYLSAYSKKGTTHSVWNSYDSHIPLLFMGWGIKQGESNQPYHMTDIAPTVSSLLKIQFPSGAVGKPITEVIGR
Change,phosphate dissociation constant
L414V,595 µM
S425V,643 µM
F291V,594 µM
T301V,665 µM
E489V,548 µM
L148V,614 µM
P493G,593 µM
M356V,623 µM
G288A,515 µM
N361V,544 µM
S392V,683 µM
W159V,571 µM
H345V,645 µM
V122A,561 µM
T419G,512 µM
N491G,611 µM
D272G,626 µM

# Excerpt of the above (study 1):
Change,normalised enrichment score
D13A,9
S2Q,7.69
